Measurements pooled from the literature.
Numbered parts are unrelated; each lists some results of a single study.
Chain of UniProt Q9UEE5 (whole entry, looked up): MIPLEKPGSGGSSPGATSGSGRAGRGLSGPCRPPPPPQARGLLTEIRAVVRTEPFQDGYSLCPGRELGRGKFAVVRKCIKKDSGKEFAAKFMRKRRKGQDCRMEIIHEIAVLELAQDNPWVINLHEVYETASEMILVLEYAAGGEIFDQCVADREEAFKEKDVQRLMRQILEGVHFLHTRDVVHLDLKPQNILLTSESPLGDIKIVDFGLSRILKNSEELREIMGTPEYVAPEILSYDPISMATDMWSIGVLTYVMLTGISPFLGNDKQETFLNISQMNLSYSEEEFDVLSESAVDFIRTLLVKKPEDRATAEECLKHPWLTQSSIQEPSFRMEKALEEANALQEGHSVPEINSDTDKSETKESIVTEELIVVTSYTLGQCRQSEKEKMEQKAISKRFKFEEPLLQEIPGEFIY
Chain of UniProt Q16644 (whole entry, looked up): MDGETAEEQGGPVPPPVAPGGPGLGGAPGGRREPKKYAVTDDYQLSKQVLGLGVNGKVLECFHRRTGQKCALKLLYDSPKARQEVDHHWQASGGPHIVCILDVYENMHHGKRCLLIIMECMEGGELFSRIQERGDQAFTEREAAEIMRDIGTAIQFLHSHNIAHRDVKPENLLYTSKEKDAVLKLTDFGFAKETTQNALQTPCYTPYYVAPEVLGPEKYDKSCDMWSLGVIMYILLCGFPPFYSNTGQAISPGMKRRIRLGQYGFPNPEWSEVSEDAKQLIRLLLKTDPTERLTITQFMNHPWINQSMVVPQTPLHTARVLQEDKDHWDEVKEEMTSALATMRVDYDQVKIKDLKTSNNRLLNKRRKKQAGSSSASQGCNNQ
Chain of UniProt P28566 (whole entry, looked up): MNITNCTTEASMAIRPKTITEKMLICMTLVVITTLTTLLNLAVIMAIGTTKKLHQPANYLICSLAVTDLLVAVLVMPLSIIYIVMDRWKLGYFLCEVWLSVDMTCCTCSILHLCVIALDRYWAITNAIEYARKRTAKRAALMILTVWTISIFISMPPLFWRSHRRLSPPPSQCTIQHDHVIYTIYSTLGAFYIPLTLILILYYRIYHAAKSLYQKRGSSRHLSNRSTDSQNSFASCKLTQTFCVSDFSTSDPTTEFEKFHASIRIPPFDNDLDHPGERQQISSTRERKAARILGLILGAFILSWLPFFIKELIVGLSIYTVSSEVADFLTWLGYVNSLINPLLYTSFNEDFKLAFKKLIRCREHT
Chain of UniProt P28222 (whole entry, looked up): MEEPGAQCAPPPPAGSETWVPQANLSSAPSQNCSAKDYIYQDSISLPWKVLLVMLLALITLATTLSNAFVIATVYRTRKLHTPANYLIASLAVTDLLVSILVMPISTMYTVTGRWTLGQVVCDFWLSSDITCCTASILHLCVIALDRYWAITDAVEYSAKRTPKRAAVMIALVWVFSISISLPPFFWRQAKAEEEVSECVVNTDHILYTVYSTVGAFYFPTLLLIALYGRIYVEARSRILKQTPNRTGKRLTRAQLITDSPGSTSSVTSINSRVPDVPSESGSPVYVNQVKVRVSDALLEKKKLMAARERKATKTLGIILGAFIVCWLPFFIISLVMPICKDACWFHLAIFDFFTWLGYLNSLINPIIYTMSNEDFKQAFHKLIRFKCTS
Chain of UniProt P11802 (whole entry, looked up): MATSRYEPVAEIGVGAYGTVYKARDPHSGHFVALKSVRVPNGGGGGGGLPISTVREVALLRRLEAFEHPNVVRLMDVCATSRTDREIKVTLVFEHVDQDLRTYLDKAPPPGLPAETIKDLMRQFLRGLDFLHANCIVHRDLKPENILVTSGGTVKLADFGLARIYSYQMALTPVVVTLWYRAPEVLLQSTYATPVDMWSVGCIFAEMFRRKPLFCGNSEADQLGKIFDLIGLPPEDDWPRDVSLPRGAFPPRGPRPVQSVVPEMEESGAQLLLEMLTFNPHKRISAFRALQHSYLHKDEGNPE
Chain of UniProt Q9BYP7 (whole entry, looked up): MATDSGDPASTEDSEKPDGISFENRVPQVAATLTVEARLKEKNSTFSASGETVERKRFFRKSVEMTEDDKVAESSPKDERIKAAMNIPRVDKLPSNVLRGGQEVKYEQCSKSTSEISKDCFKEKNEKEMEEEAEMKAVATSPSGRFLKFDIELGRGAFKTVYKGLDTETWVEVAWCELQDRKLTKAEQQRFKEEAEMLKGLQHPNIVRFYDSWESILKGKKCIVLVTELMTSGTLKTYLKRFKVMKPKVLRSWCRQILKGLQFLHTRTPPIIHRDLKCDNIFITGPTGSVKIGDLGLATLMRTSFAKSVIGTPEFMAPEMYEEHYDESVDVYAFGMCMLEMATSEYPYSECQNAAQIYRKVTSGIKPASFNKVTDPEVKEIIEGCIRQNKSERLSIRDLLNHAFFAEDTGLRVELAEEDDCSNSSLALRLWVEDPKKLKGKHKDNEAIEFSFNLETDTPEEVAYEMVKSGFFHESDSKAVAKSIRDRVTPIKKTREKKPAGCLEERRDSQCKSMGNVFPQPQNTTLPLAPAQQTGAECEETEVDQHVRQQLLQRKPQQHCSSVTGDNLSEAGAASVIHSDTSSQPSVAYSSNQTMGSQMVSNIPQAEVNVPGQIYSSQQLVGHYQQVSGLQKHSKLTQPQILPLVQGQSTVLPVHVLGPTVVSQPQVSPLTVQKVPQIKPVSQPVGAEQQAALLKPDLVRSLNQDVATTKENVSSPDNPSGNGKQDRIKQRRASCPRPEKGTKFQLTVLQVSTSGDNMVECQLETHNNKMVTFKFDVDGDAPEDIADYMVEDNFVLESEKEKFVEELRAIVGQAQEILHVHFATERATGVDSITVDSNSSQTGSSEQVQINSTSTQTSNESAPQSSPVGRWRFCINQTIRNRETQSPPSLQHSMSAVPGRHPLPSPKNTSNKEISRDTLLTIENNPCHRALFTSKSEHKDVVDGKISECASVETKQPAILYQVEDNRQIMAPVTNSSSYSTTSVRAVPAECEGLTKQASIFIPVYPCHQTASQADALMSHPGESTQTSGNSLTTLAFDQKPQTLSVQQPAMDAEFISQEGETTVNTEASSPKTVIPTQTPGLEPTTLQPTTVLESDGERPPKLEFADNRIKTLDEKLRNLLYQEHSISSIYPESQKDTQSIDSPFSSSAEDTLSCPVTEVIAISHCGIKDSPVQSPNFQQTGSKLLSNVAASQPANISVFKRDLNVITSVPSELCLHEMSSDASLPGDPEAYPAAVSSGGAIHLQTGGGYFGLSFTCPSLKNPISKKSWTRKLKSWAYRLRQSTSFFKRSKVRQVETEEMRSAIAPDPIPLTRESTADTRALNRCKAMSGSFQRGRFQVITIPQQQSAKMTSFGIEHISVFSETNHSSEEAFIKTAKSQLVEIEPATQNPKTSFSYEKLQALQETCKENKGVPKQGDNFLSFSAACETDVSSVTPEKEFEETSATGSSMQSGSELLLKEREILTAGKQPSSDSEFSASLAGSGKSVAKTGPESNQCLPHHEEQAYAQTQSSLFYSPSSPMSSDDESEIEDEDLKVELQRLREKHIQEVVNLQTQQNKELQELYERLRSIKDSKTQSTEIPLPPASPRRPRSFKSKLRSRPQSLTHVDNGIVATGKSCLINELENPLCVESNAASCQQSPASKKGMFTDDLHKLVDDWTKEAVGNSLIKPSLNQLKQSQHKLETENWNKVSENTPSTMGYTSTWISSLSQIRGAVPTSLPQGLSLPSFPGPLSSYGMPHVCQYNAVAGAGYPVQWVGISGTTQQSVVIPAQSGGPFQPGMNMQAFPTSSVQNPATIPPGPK
Chain of UniProt Q99720 (whole entry, looked up): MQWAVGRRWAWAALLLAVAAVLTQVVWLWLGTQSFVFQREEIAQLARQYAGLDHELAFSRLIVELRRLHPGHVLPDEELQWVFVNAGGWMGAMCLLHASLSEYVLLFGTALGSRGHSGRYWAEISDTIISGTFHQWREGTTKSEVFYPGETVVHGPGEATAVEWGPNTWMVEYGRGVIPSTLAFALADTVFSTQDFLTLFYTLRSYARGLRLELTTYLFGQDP
Chain of UniProt P06493 (whole entry, looked up): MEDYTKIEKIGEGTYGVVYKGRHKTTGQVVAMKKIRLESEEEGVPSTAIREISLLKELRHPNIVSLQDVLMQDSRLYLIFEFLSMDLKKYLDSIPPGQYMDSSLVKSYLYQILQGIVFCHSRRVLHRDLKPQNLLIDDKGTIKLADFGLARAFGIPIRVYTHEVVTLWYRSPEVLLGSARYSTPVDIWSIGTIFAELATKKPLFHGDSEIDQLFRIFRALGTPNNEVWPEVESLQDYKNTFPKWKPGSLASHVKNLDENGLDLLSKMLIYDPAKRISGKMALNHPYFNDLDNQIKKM
Chain of UniProt Q5BJF2 (whole entry, looked up): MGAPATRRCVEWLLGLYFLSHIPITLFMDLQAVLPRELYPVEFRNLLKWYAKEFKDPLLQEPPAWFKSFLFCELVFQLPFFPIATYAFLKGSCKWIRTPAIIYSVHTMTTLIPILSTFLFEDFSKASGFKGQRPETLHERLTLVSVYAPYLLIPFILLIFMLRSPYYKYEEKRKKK
Chain of UniProt Q9H3Y6 (whole entry, looked up): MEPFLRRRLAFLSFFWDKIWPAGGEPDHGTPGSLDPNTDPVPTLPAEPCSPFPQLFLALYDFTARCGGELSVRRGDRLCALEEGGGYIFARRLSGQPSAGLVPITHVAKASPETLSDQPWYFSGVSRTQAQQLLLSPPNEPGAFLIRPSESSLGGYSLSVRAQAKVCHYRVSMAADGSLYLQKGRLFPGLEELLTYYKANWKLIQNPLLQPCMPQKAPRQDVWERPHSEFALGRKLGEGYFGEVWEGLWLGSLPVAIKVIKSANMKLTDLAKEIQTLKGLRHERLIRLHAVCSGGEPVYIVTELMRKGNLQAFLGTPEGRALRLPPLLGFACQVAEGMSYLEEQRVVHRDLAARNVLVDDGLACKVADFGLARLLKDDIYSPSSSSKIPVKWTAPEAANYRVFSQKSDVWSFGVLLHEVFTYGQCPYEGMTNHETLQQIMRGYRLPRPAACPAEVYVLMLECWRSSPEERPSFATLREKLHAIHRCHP

Series 1 — concentration: 10 µM
Compound: CO[C@@H](C)c1c(Nc2ccc([C@@H](N(C)C(=O)C3CCS(=O)(=O)CC3)C(F)(F)F)cc2)cnc2cc(Cl)nn12
| target | read-out | technique | inhibition [%] |
| --- | --- | --- | --- |
| Histamine H3 receptor (HRH3, Homo sapiens, UniProt Q9Y5N1) | binding | radioligand binding | -13.9 |
| D(2) dopamine receptor (DRD2, Homo sapiens, UniProt P14416) | binding | radioligand binding | -4.3 |
| 5-hydroxytryptamine receptor 1B (HTR1B, Homo sapiens, UniProt P28222) | binding | radioligand binding | 11.4 |
| Alpha-2A adrenergic receptor (ADRA2A, Homo sapiens, UniProt P08913) | binding | radioligand binding | 5.1 |
| Sigma non-opioid intracellular receptor 1 (SIGMAR1, Homo sapiens, UniProt Q99720) | binding | radioligand binding | 56.8 |
| 5-hydroxytryptamine receptor 2B (HTR2B, Homo sapiens, UniProt P41595) | binding | radioligand binding | 9.74 |
| D(3) dopamine receptor (DRD3, Homo sapiens, UniProt P35462) | binding | radioligand binding | -5.92 |
| 5-hydroxytryptamine receptor 6 (HTR6, Homo sapiens, UniProt P50406) | binding | radioligand binding | -10.2 |
| 5-hydroxytryptamine receptor 5A (HTR5A, Homo sapiens, UniProt P47898) | ligand displacement | – | -23.6 |
| 5-hydroxytryptamine receptor 1D (HTR1D, Homo sapiens, UniProt P28221) | binding | radioligand binding | -3.07 |
| D(4) dopamine receptor (DRD4, Homo sapiens, UniProt P21917) | binding | radioligand binding | -14.1 |
| Alpha-1A adrenergic receptor (ADRA1A, Homo sapiens, UniProt P35348) | binding | radioligand binding | -3.44 |
| 5-hydroxytryptamine receptor 1E (HTR1E, Homo sapiens, UniProt P28566) | ligand displacement | – | -16.7 |
| Sigma intracellular receptor 2 (TMEM97, Homo sapiens, UniProt Q5BJF2) | binding | radioligand binding | 57.1 |
| Muscarinic acetylcholine receptor M5 (CHRM5, Homo sapiens, UniProt P08912) | binding | radioligand binding | 7.57 |

Series 2
SMILES: CC(C)n1cnc(-c2ccc(F)cc2)c1-c1ncc(C(=O)Nc2ccc(N3CCN(C)CC3)cc2)[nH]1
| technique | measured | species | route | dose | setting | patients with adverse event [%] |
| --- | --- | --- | --- | --- | --- | --- |
| Phase 2a trial | blood urea increased | human, idiopathic pulmonary fibrosis | – | 30 mg once daily | grade 2 | 0 |
| Phase 2a trial | haemoptysis | human, idiopathic pulmonary fibrosis | – | 60 mg once daily | grade 2 | 0 |
| – | skin papilloma, maximum grade 4 | idiopathic pulmonary fibrosis patients | – | dose not given | all compound arms pooled | 0 |
| Phase 2a trial | eosinophilia myalgia syndrome | human, idiopathic pulmonary fibrosis | – | 60 mg once daily | grade 5 | 0 |
| – | prostatic calcification, maximum grade 3 | idiopathic pulmonary fibrosis patients | oral | 30 mg once daily | – | 0 |
| Phase 2a trial | hypokalaemia | human, idiopathic pulmonary fibrosis | – | 30 mg once daily | grade 4 | 0 |
| Phase 2a trial | blood pressure increased | human, idiopathic pulmonary fibrosis | – | all compound arms total | grade 5 | 0 |
| Phase 2a trial | haemoptysis | human, idiopathic pulmonary fibrosis | – | 30 mg once daily | grade 3 | 0 |
| Phase 2a trial | eosinophilia myalgia syndrome | human, idiopathic pulmonary fibrosis | – | all compound arms | grade 4 | 0 |
| Phase 2a trial | eosinophilia myalgia syndrome | human, idiopathic pulmonary fibrosis | – | 30 mg once daily | grade 4 | 0 |
| Phase 2a trial | hyperuricaemia | human, idiopathic pulmonary fibrosis | – | 30 mg once daily | grade 2 | 0 |
| Phase 2a trial | haemorrhoids | human, idiopathic pulmonary fibrosis | – | 60 mg once daily | grade 3 | 0 |
| Phase 2a trial | blood pressure increased | human, idiopathic pulmonary fibrosis | – | 60 mg once daily | grade 5 | 0 |
| Phase 2a trial | hyperlipidaemia | human, idiopathic pulmonary fibrosis | – | all compound arms total | grade 3 | 0 |

Series 3 — species: human; sample: microsomes or S9; concentration: 2 µM; time: 0.5 h
| Compound | remaining compound [%] |
| --- | --- |
| COC(=O)c1c(CCc2ccc(OC)cc2)nc(CCc2ccccc2)c(O)c1C(=O)OC | 5.38 |
| Cc1nn(CC(C)C)c2sc(C(=O)N3CCN(CC(=O)NC4CC4)CC3)cc12 | > 100 |
| CN(C)S(=O)(=O)c1ccc(Br)c2ccccc12 | 7.63 |
| Fc1ccc2nc(-n3cncn3)c(-c3ccc(Cl)cc3Br)c(Cl)c2c1 | 91.5 |
| CCCn1nccc1-c1csc(S(=O)(=O)NC(C)(C)CC)c1 | 0.116 |
| CCN1CCN(C(=O)c2ccc3c(c2)N(Cc2cccc(Cl)c2)C(=O)c2ccccc2[S+]3[O-])CC1 (stereo not shown) | 32.3 |
| CS(=O)(=O)N1N=C(c2cccs2)CC1c1ccccc1F (stereo not shown) | 43 |
| c1ccc(OCCN2CCCC3(C2)Nc2ccccc2-n2cccc23)cc1 (stereo not shown) | 2.37 |

Series 4 — read-out: enzyme activity; action: inhibitor; concentration: 0.5 µM; relative to: control
Structure (SMILES): N#Cc1cnc2cnc(NCc3cccnc3)cc2c1Nc1ccc(F)c(Cl)c1
| target | remaining activity [%] |
| --- | --- |
| Ribosomal protein S6 kinase alpha-6 (RPS6KA6, Homo sapiens, UniProt Q9UK32) | 104 |
| Calcium/calmodulin-dependent protein kinase type II subunit beta (CAMK2B, Homo sapiens, UniProt Q13554) | 97.4 |
| Mitogen-activated protein kinase kinase kinase kinase 4 (MAP4K4, Homo sapiens, UniProt O95819) | 44.4 |
| Serine/threonine-protein kinase 17A (STK17A, Homo sapiens, UniProt Q9UEE5) | 79.6 |
| Ribosomal protein S6 kinase alpha-5 (RPS6KA5, Homo sapiens, UniProt O75582) | 102 |
| cAMP-dependent protein kinase catalytic subunit gamma (PRKACG, Homo sapiens, UniProt P22612) | 115 |
| Ephrin type-B receptor 4 (EPHB4, Homo sapiens, UniProt P54760) | 85.2 |
| Dual specificity tyrosine-phosphorylation-regulated kinase 3 (DYRK3, Homo sapiens, UniProt O43781) | 96.3 |
| Testis-specific serine/threonine-protein kinase 2 (TSSK2, Homo sapiens, UniProt Q96PF2) | 100 |
| Cyclin-dependent kinase 6, with cyclin D3 (CDK6, Homo sapiens, UniProt Q00534) | 88.8 |
| Tyrosine-protein kinase Srms (SRMS, Homo sapiens, UniProt Q9H3Y6) | 104 |
| Serine/threonine-protein kinase WNK3 (WNK3, Homo sapiens, UniProt Q9BYP7) | 92.4 |
| Tyrosine-protein kinase Blk (BLK, Homo sapiens, UniProt P51451) | 99.9 |
| Ephrin type-B receptor 1 (EPHB1, Homo sapiens, UniProt P54762) | 93.1 |
| 3-phosphoinositide-dependent protein kinase 1 (PDPK1, Homo sapiens, UniProt O15530) | 85.3 |
| Cyclin-dependent kinase 4, with cyclin D3 (CDK4, Homo sapiens, UniProt P11802) | 101 |
| Cyclin-dependent kinase 1, with cyclin B (CDK1, Homo sapiens, UniProt P06493) | 84.5 |
| MAP kinase-activated protein kinase 3 (MAPKAPK3, Homo sapiens, UniProt Q16644) | 94 |
| Serine/threonine-protein kinase 16 (STK16, Homo sapiens, UniProt O75716) | 93.8 |
| Ephrin type-A receptor 4 (EPHA4, Homo sapiens, UniProt P54764) | 92.8 |
| Tyrosine-protein kinase receptor UFO (AXL, Homo sapiens, UniProt P30530) | 103 |
| Homeodomain-interacting protein kinase 4 (HIPK4, Homo sapiens, UniProt Q8NE63) | 93.1 |
| Phosphorylase b kinase gamma catalytic chain, skeletal muscle/heart isoform (PHKG1, Homo sapiens, UniProt Q16816) | 92 |
| Homeodomain-interacting protein kinase 2 (HIPK2, Homo sapiens, UniProt Q9H2X6) | 93.2 |

Excerpt of the above (series 3):
| Compound | remaining compound [%] |
| --- | --- |
| Cc1nn(CC(C)C)c2sc(C(=O)N3CCN(CC(=O)NC4CC4)CC3)cc12 | > 100 |
| CCN1CCN(C(=O)c2ccc3c(c2)N(Cc2cccc(Cl)c2)C(=O)c2ccccc2[S+]3[O-])CC1 (stereo not shown) | 32.3 |
| CN(C)S(=O)(=O)c1ccc(Br)c2ccccc12 | 7.63 |
| CCCn1nccc1-c1csc(S(=O)(=O)NC(C)(C)CC)c1 | 0.116 |
| CS(=O)(=O)N1N=C(c2cccs2)CC1c1ccccc1F (stereo not shown) | 43 |
| Fc1ccc2nc(-n3cncn3)c(-c3ccc(Cl)cc3Br)c(Cl)c2c1 | 91.5 |
| COC(=O)c1c(CCc2ccc(OC)cc2)nc(CCc2ccccc2)c(O)c1C(=O)OC | 5.38 |
| c1ccc(OCCN2CCCC3(C2)Nc2ccccc2-n2cccc23)cc1 (stereo not shown) | 2.37 |
